Measured values pooled from the literature.
Each numbered part is a random draw from the data of one study; scales do not carry over between parts.

Study 1 — technique: protein-binding microarray; form: double-stranded DNA, one strand shown; medium: in vitro; concentration: 250 nM; notes: 60-bp whole probe; with: salmon DNA 0.4 mg/ml; reference: random background probes; reading: higher = stronger binding; shared flanks, not repeated: GCCTAGCAC … GTCTTGATTCGCTTGACGCTGCTG
Target: Interferon regulatory factor 5, full length, phosphomimetic (IRF5, Homo sapiens, UniProt Q13568-2, residues 1-514, K96S/S451D/S453D/S456D/S462D)
Oligonucleotide	log fluorescence [z-score]
GACGATATCAGTTTCGGGACGTGCTAG	7.41
TTAGGTTTCCTTTTCCCTTAGTGCTAG	1.62
TTAGGTATCGCGTTTCGGTTAGTGCTA	6.8
GACGATCTCAGTATCGCGACGTGCTAG	0.169
TTTCCCTAGAAGACGAAAGAGTGCTAG	4.14
TCATATTTTTTTCTAATACTGTGCTAG	1.25
GACGATTTCGGGACTGGAAACGTGCTA	1.96
TTAGGTATCCTAATGCTTTAGTGCTAG	0.102
AGACACCCCTTTGGTGCCACGTGCTAG	-0.414
AACCATTTTGTTTTTCATTAGTGCTAG	1.71
GACGGTTTCGGGTTTCGGGAAGTGCTA	8.69
TTAGGTATCTGGTTTCGGTTAGTGCTA	8.95
TCATCTCTGGACTGTGTGACTGTGCTA	-0.165
GACCGACTGCTTCTCCTGACGTGCTAG	-0.521
TTAGGACCGGACTTTCGGTTAGTGCTA	9.44
CTGCTGGCCTGTTGCTGGAAGTGCTAG	-0.377

Study 2 — technique: RNA Bind-n-Seq; form: RNA; medium: in vitro; concentration: not given; reference: input RNA pool; reading: higher = stronger binding
Target: RING finger protein unkempt homolog, zinc fingers 1-6, GST-SBP tag (UNK, Homo sapiens, UniProt Q9C0B0, residues 30-357)
Notes: RNA with constant flanks, human-mouse chimeric sites, ends assumed
Shared flanks, not repeated: GGGAGUUCUACAGUCCGACGAUC … CAACAGAGGAUUGAGCAUCA
Target sequence (chain): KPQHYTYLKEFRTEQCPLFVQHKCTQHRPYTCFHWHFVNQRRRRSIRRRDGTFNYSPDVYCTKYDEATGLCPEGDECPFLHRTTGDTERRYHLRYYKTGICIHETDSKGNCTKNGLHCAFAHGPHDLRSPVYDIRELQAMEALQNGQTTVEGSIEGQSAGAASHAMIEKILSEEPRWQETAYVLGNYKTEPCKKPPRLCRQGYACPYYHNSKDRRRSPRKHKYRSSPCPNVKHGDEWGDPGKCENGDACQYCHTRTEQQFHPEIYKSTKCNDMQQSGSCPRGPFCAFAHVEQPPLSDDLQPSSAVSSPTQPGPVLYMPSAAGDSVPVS
Oligonucleotide	bound/input enrichment [ratio]
UGGGCACUCUAUCAGAUAUAUUAAUUUUUUAAUGUAGAUGUAAUUUUAAAAAUGAAUGGCUACUUUACACGUUUAACUAGGGUUUUACUAUAUAUGUGUGUGUAUAUAUAUAUAUAUAUA	22.8
UCGGAUGCUGUGCUGGGUCACUUUUCAUAUCCAGAUCCUUCACAGUGGACAGAUGAAGAACUGGGAAUCCCUCCUGAUGACGAGGACUGACACUGUAGACUCAGCCUCACUCUGUACGCA	0.144
UCUUAACGUCCAUUUAAAACUUAUUUUUAUAGCUAGAGCAAUAUUGUUAGUCUUAGACAAUAGCUCACAUUUUUUGAGAAGCAUGCCCUCCCUGUCCAUUUGUCUUAUAACAUGACCCAG	15.1
CUGUGACCACAAGAUCCUACCUGAGUGGCAGCUGAAGCACUUUUCUUCUCCUUGCCUGAACCCCCCCCCACUGCCCCUUGAGUCCACAGUGUCGGCUGAGAUGUUGCCUCUGCACGGUUC	0.453
CACAGAGCAGCACCUACCCCCUCCUCCUUUCCACACCUGCAAACCCUUUUACUUGGGCUGAAUAUUUAGUGUAAUUAACAUCGCAGCUUGAGGGCUCCUGUGGCAAAUUCCCGGAUUAAA	1.47
UCUGGUCACACUCGUGUGUAUGGUGUUUGCUUUGUGGACACUUCACUGGGAAAGUUUUUCAUCGGCCAGUUUUCGGAUGAUCGCCAUUGUUCCAGAUUUAGGACGCUAGUGGCUCACUAU	0.208
GUAGCUGGGACUACAGAAAUGCUGGUAAUUUCAGUCAGUGAGUCGUGACUUCUGAUGUCCCAGCAAAUGUUGGCAUUGUUGACUGCUGAGAAGAUACUUCUGAGGACCCACGUCUAAGGU	0.0765
UGGGCACUCUAUCAGAUAUAUUAAUUUUUUAAUGUAGAUGUAAUUUUAAAAAUGAAUGGCUACUUUACGUGAUAGAUUAGGGUUUUACUAUAUAUGUGUACAUAUGUAUAUAUAUAUAUA	11.4
GGUGGGGGGUUGUCAUUGCCAAUUGAGGCUGAUUUUCAUGAGUCGCCUUCAAAACUCUCGUGUAGGGUUGACAAUGUGGGGGGGUGGGGGAUCCAGCUUAUUCUUUUAUUUUCAAGUCCA	0.876
CUGUGUGGCUUACUAAAAUGGCUUGUAAAGAAGUUUUUCCAAGCUGUAACCCAUGCUGUUAUUAUAGUUGCUGCAAAAUGUUCUUCCUAUUGAUGUUUUUAUUUGUUAACUGAAGGUCUC	0.283
UAAAUUAGGGCUGCCGUUUUCUGUUUCUCCCUGGGCUGCGGAAAGCCAGGCGGUUUUAUCUAGCUUAUACAAGGCUGCUGGUGUUCCCUCUUUUUUUCCACGAGGGUGUUUUUGGCUGCA	2.93

Study 3 — technique: protein binding microarray; form: double-stranded DNA, one strand shown; medium: in vitro; concentration: not given; reference: not given; reading: higher = stronger binding
Target: Histone acetyltransferase KAT6A, both winged helices, GST fusion (KAT6A, Homo sapiens, UniProt Q92794, residues 1-181)
Notes: 8-mer, flanks averaged, mean of 2 arrays, mostly near background
Construct (chain): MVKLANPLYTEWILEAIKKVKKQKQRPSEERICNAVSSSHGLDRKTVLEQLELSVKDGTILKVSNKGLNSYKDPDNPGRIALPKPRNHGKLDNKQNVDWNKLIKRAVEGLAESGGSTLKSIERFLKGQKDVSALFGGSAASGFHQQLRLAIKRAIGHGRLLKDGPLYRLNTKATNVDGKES
Oligonucleotide	E-score
ACCAGGTA	-0.336
GTGTGCCA	-0.0317
CTCACACC	-0.0986
TAACTGTA	-0.0755
GGGGAATA	-0.133
CCAATATA	-0.156
ACCGAGGT	0.0154
AAGGTACT	-0.026
ATATGCGA	0.154
CAACGATC	0.00511
CCTTTACA	-0.0942
GGCGTCAA	0.0555
ACCGGGGA	0.159
CCATAAAA	0.0294
CAACAGAA	-0.099
GCTCAGCA	-0.0451
GCACCGCC	0.156

Study 4 — technique: RNA Bind-n-Seq; form: RNA; medium: in vitro; concentration: 365 nM; reference: no-protein control; reading: higher = stronger binding
Target: RNA binding protein fox-1 homolog 2, RRM domain, GST-SBP tag (RBFOX2, Homo sapiens, UniProt O43251-10, residues 100-194)
Notes: natural RNA segment, single round, ends assumed
Shared flanks, not repeated: GGGAGUUCUACAGUCCGACGAUC … UGGAAUUCUCGGGUGCCAA
Target sequence (chain): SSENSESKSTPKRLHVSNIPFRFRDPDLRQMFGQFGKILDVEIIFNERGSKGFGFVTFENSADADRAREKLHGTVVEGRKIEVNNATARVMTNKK
Oligonucleotide	RBNS enrichment (R)
GAUCUCAGCUCACUGGCAACAUCUGCCUCCCGGGUUCAAAUGAUUCUCCUGCCUCAGUCUCCUGAGUAGCUGGGAUUACAGGUGCCCGCCACCACGCUCAGCUAAUUUUU	0.227
CGACUUUUGUUUGUGUUACAUGACUUCUGUGACUUCAUUGAAAAUCUGCACAAUUCAGUUUCAGCUCUGGAUUACUUCAGUUGACCUUUGUGAAGGUUUUUAUCUGUGUA	0.379
CGGUCAAGGCUUUGGAGCCACUCUUUUGUAACUCCAGAUUAUUUAAAGAGAAAAGUACAAGACAGAAAUCUUCUAGCACUUUGUAAACACAGUGAAUAACCUCUUGGAGU	0.358
CUCUGUCCUCCCUGUGGAAUCCCUCUGUGGGGCAGGAUGAGUCCUUUGGUGGCCCUCUACUCUAUUGUCCCACACCCUACAUUCUCUCCUCUGGACUCCCAAGGAGGCUG	0.58
ACAUUCAGGGUGUACAUAAACAGAAGAGUAUCAUAAUGUAUUUUUAUUAAACACUAACAUCUGAGUUUCACCUAAUCUGUUUCUGUGCCAUAUACUGGGUAUCCAAGCUC	0.308
CAAUAGUAAUAAGGUAGCAUUUCUAGUCUUCCUCAUUACAAAAUGUAGCUGUUUUCUAAGUAGGAAAAUGUAAUUUGAAAUUAUCUUGCCACCAUACAGUUUUACUUUUU	0.419
CGAGAGGGCACGGGUGGGUGCUCACAGUGGGACCUUCUUGGAGGAAUCUCAGAGGGGGACAGAGAUGAGAUGUGCAUUCCUGGCUGCCACCUGCAUUCCUGAGGAACUCU	0.764
AUGAUUGUGACUUCUAGUUCUUUUCUAGAGGAUGCUGCUAGAAAAUGGUUUUGCUUUGUAUUUUAUAGCUUGUUACCCUUAGGUAGGUAACAUCUUACAUUCUGUUUUCU	1.9
CUGUCUUUUCGACUAAGUAGUAUUGUCAAGAUAAUGGGGCCUGUGACUUGAAUGGAUAGAAUAGAAAUGAAUAAGCUGGUUUUUGUUUUUCCAAAUGAGAUUUAGAUUUG	0.595
CUUUUUUGUUGUUUUGUUUUUCUUUUUUGGCCUAAGGAAGAAAGCUGUGAUAAAUUUCAAAUUUGCAUAGCUUUUCAAUGUUUUGCUCUGCUCCCGCUCUUGCUUCAGAG	1.16
GUGGAGUCUUGUGUACUAAAGUGCUAUCCGCUGGGCCUUUGGGAUUGAAGCAGUAGAAAGCGAAAAGGCUGGGCACCAGGCUUCAAUCUCUGAGAAUCUAAACUCUUACC	0.314
ACAAUUUGUUCCAACUUUAAUCCAUAAUUUAAAAACUGACAAAUCACUUUCAGAAAUUCAGGUGCACAAGGGAAACUUUCAAGUACGAUCCAAUUAUCUUUCUGAUCCUU	0.626

Study 5 — technique: RNA Bind-n-Seq; form: RNA; medium: in vitro; concentration: 200 nM; notes: whole 134-nt RNA, ends assumed; with: 150 mM LiCl; reference: input library; reading: higher = stronger binding; library: 7-deaza-guanosine replaces G
Target: Fragile X messenger ribonucleoprotein 1, C-terminal low-complexity region (Fmr1, Mus musculus, UniProt P35922)
Shared flanks, not repeated: GGGAGUUCUACAGUCCGACGAUC … UGGAAUUCUCGGGUGUCAAGG
Oligonucleotide	log2 enrichment
AAGUCCUGUGCUACACAUCGUAUGUACCGAAUCGGGGAGGGGUUUGGGGAAAGGGGAAAGUAUUAUGUUACGCCGUUCGGAUCUGCACUU	-0.562
GUCCUGUGCUACACAUCGUAUGUACCGAAUCGGGCCCCCGGGGCCCCCGGCCCCCGGGAAAGUAUUAUGUUACGCCGUUCGGAUCUGCAC	-2.79
CAAGUCCUGUGCUACACAUCGUAUGUACCGAAUCGGGUUUGGUUUGGGGUUUGGGAAAGUAUUAUGUUACGCCGUUCGGAUCUGCACUUC	-1.79
UUUCUUCUGCUGCUGCUAGUCAUGAGAUCAAGGUGGGUCUGAGAAUGGCCAUUCAGAGGCCCUGGAUAGUAACCAGGUAAUGGAUGACAC	-0.467
CUGUGCUACACAUCGUAUGUACCGAAUCAAACCCCCCCAAACCCCCCCAAAUUUUUUUAAAAAAGUAUUAUGUUACGCCGUUCGGAUCUG	1.68
UCAAGUCCUGUGCUACACAUCGUAUGUACCGAAUCGGGGAGGGGAGGGGAGGGGAAAGUAUUAUGUUACGCCGUUCGGAUCUGCACUUCC	0.25
UGGCCCUGGUGGCAUGCGGGGAGGAAAAGGUGGCCUCAUGGAUCGUGGUGGUCCCGGUGGAAUGUUCAGAGGUGGCCGUGGUGGAGACAG	-0.12
CCUCAAGUCCUGUGCUACACAUCGUAUGUACCGAAUCGGGUUGGUUGGGUUGGAAAGUAUUAUGUUACGCCGUUCGGAUCUGCACUUCCA	-0.542
GCAGGAAGUAAAAACAAAUGGAAAUGCUUCGGAUAGUGGCAGGGGUGGGGGUUGCUAAGGAAAGGGUGGGAUGGGAAUGGGUAAAGAGUU	1.32
UUUACAAAUAUGCCCAAGACUUCUUGGUGGCUAUUGCAGAGCCAGUGUGCCGACCAACCCAUGUGCAUGAGUACAAACUAACUGCCUACU	-0.0227
ACCAUGCAGGUGGGCAUCUUUGGGAAGUGGGGCAAAAAGGGGAUAGGGAGGGGGGUAACACUUUGGGAACAGGUGGUCCCAGGUCGUUUC	1.11

Repeated from above (study 1):
Oligonucleotide	log fluorescence [z-score]
GACGATATCAGTTTCGGGACGTGCTAG	7.41
TTAGGTTTCCTTTTCCCTTAGTGCTAG	1.62
TTAGGTATCGCGTTTCGGTTAGTGCTA	6.8
GACGATCTCAGTATCGCGACGTGCTAG	0.169
TTTCCCTAGAAGACGAAAGAGTGCTAG	4.14
TCATATTTTTTTCTAATACTGTGCTAG	1.25
GACGATTTCGGGACTGGAAACGTGCTA	1.96
TTAGGTATCCTAATGCTTTAGTGCTAG	0.102
